Published values of several laboratories.
Compare with care: the assays were run in different laboratories. Several values in a cell are separate wells, animals, samples, runs or records.
Target: Casein kinase I isoform gamma-1 (CSNK1G1, Homo sapiens, UniProt Q9HCP0)

`C=CC(=O)N1CCc2ccc(-n3c(=O)ccc4cnc5ccc(-c6cnn(C)c6)cc5c43)cc21` has a remaining binding of 91% (KINOMEscan; 1 µM; reference: DMSO control).
The remaining activity of `O=C(O)CCC(=O)c1cccc(NS(=O)(=O)c2c[nH]c3ncccc23)c1` is reported as 104% (kinase activity, radiometric; 10 µM).
For `O=C(Cc1ccc(OCc2ccccc2)cc1)NC1(C(=O)O)CCN(C(=O)c2ccc(-c3cccc(Cl)c3)cc2)CC1`, “activity vs control” read 88% (enzyme activity, inhibitor; 10 µM).
`CNC(=O)C[C@H](Cc1ccc(C#N)cc1)NC(=O)c1cc(-c2ccc(CN[C@H](C)c3ccc(C)cc3)o2)ccc1Cl`: “activity vs control” 100% (enzyme activity, inhibitor; 1 µM).
`CC(C)=CC1OC(C)(C)C2C=C3C(=O)C(Cl)=CC(O)C3C3C(O)C4OC4C(=O)C132` (stereo not drawn) has a remaining binding of 94% (cell-free assay, competition with immobilised ligand; 10 µM).
`NC(=O)[C@@H](O)C[C@H]1CCc2sc3ncnc(O[C@H]4CC[C@H](N5CCOCC5)CC4)c3c21` has an inhibition of 4% (enzyme activity, inhibitor; 10 µM).
`C=CC(=O)N1Cc2nc(-c3cc(-c4cc(Cl)cnc4Cl)c(F)cc3F)n(-c3ccncn3)c2C1` has an inhibition of 11% (cell-free assay, inhibitor; 1 µM).
`COc1c(OCCCN2CCOCC2)ccc2c1N=C(NC(=O)c1cnc(N)nc1)N1CCN=C21` gave a remaining activity of 98% (kinase activity, inhibitor; 1 µM; reference: untreated control).
With `COc1ccc(NC(=O)Nc2ccc3c(c2)C(=O)N(C(C)CO)CC(C)C(CN(C)Cc2ccc4c(c2)OCO4)O3)cc1` (stereo not drawn) the remaining activity was 104% (kinase activity, KinaseProfiler; 0.03 µM, species human; reference: control).
The inhibition of `CCn1cc(C(=O)O)c(=O)c2c(N)c(F)c(NC3CCCCC3)cc21` is reported as 1.8% (kinase activity; 0.1 µM, with: ATP at Km).
For `Cc1cnc2nc1Nc1cccc(c1)COC/C=C/COCc1cc(ccc1OCCN1CCOCC1)N2`, the remaining signal was 86% (cell-free assay; 0.1 µM).
With `CNC1C[S+]2CC[S+]3CC[S+](C1)[Ru-4]321([N]=C=S)[n]2c3ccc(OC)cc3c3c4c(c5cc(F)c[n+]1c5c32)C(=O)NC4=O` (stereo not drawn) the remaining binding was 100% (KinomeScan; 0.1 µM; reference: untreated).
For `Cc1cccc(O[C@H]2CCC[C@@H](C(C)CNCc3ccncc3)C2)c1` (relative stereo), the inhibition was -3% (kinase activity, kinome panel screening; 1 µM).
The inhibition of `C=CC(=O)Nc1cccc(-c2cnc3[nH]cc(C(=O)NC(C)(C)C)c3n2)c1` is reported as 9% and 5% (kinase activity; 0.1 µM).
`COc1cc(Nc2nccc(-c3cnn4nc(OC)ccc34)n2)cc(C(F)(F)F)c1` gave a remaining binding of 100% (binding, competition with immobilised ligand; 1 µM).

Repeated from above:
For `O=C(Cc1ccc(OCc2ccccc2)cc1)NC1(C(=O)O)CCN(C(=O)c2ccc(-c3cccc(Cl)c3)cc2)CC1`, “activity vs control” read 88% (enzyme activity, inhibitor; 10 µM).
